Published values gathered from unrelated publications.
Several values in a cell are separate wells, animals, samples, runs or records. Numbers after ± are the reported error.
CNR2: Cannabinoid receptor 2 (CNR2, Homo sapiens, UniProt P34972)
DGKA: Diacylglycerol kinase alpha (DGKA, Homo sapiens, UniProt P23743)
SUCNR1: Succinate receptor 1 (SUCNR1, Homo sapiens, UniProt Q9BXA5)
C3AR1: C3a anaphylatoxin chemotactic receptor (C3AR1, Homo sapiens, UniProt Q16581)
Genome polyprotein NS2B-NS3 protease: Genome polyprotein, NS2B-NS3 protease (dengue virus type 2, UniProt P29990)

CCOC(=O)C(CC)(CCCSCCOCCN)NC(=O)c1ccc(C2CC2)c(Cc2ccc(F)cc2)n1 (centres unmarked) — EC50 (CNR2; cAMP, agonist): 8.2 nM
CC(C)Oc1cc(Cl)ccc1CNc1cc(-c2ccccc2)nc2ncnn12 — EC50 (G-protein coupled receptor 3 (GPR3, Homo sapiens, UniProt P46089, I200W); cAMP level, agonist, cAMP GloSensor; I200W mutant): 2680 nM
C[C@@H]1CN(c2cc(=O)n(C)c3ccc(C#N)nc23)[C@@H](C)CN1Cc1ccc(S(=O)(=O)n2cnc(C3CC3)n2)cc1 — EC50 (DGKA; plasma membrane translocation, activator, TIRF microscopy, measured: endogenous DGKα; NG-DGKα knock-in cells; 720 s): 39 nM
CCOC(=O)C(CC)(CCCSCCCCCCNc1ccc([N+](=O)[O-])c2nonc12)NC(=O)c1ccc(C2CC2)c(Cc2ccc(F)cc2)n1 (centres unmarked) — EC50 (CNR2; cAMP, agonist): 9.9 nM
O=C(Cc1ccc(OCc2ccccc2)cc1)NC1(C(=O)O)CCN(C(=O)c2ccc(-c3cccc(Cl)c3)cc2)CC1 — EC50 (Adenosine receptor A3 (ADORA3, Homo sapiens, UniProt P0DMS8); cAMP, agonist, luciferase): > 10000 nM
O=C(O)CC(NC(=O)c1ccc(COc2ccccc2)o1)C(=O)O (centres unmarked) — EC50 (SUCNR1; inositol phosphate, agonist): 442 nM
CCOC(=O)C(CC)(CCCSCCOCCNc1ccc([N+](=O)[O-])c2nonc12)NC(=O)c1ccc(C2CC2)c(Cc2ccc(F)cc2)n1 (centres unmarked) — EC50 (CNR2; cAMP, agonist): 171 nM
CC(C)C[C@H](NC(=O)[C@H](C)NC(=O)[C@H](CO)NC(=O)[C@@H]1CCCN1C(=O)[C@@H]1CCCN1C(=O)[C@H](CCC(N)=O)NC(=O)[C@H](CC(C)C)NC(=O)[C@@H](N)[C@@H](C)O)C(=O)N[C@@H](CCCNC(=N)N)C(=O)N[C@@H](CCCNC(=N)N)C(=O)N[C@@H](CCCNC(=N)N)C(=O)N[C@@H](Cc1c[nH]cn1)C(=O)N[C@@H](Cc1ccc(O)cc1)C(=O)N[C@@H](Cc1c[nH]cn1)C(=O)N[C@@H](Cc1c[nH]cn1)C(=O)N[C@@H](C)C(=O)N[C@@H](CC(C)C)C(=O)N1CCC[C@H]1C(=O)N1CCC[C@H]1C(=O)N[C@@H](CO)C(=O)N[C@@H](CCCNC(=N)N)C(=O)O — EC50 (C3AR1; cAMP, agonist, luciferase): 1050 nM
CCOC(=O)C(CC)(CCCSCCOCCOCCOCCNc1ccc([N+](=O)[O-])c2nonc12)NC(=O)c1ccc(C2CC2)c(Cc2ccc(F)cc2)n1 (centres unmarked) — EC50 (CNR2; cAMP, agonist): 9.2 nM
COc1cc(C2C(NC(=O)c3ccc(NC(=O)OC(C)(C)C)cc3)(C(=O)O)C(c3ccc(OC(=O)c4cccs4)c(OC)c3)C2(NC(=O)c2ccc(NC(=O)OC(C)(C)C)cc2)C(=O)O)ccc1OC(=O)c1cccs1 (centres unmarked) — EC50 (Glucagon-like peptide 1 receptor (GLP1R, Homo sapiens, UniProt P43220, Y145A); cAMP, agonist): 14.5 nM
Cc1ccc(-n2nc(C(=O)Nc3cccc(C(N)=O)c3)cc2-c2ccc(CC(C)C)cc2)cc1 — EC50 (Genome polyprotein NS2B-NS3 protease; reporter gene; HeLa): 12000 nM
CC[C@H]1CN([C@@H](CC)c2ccc(C(F)(F)F)cc2)[C@H](CC)CN1c1nc(=O)n(C)c2ccc(C#N)nc12 — EC50 (DGKA; membrane translocation, high-content imaging; Jurkat, DGKα-YFP; 1 h): 26 nM
CC(C)C[C@H](NC(=O)[C@@H](N)[C@@H](C)O)C(=O)N[C@@H](CCC(N)=O)C(=O)N1CCC[C@H]1C(=O)N1CCC[C@H]1C(=O)N[C@@H](C)C(=O)N[C@@H](CO)C(=O)N[C@@H](CO)C(=O)N[C@@H](CCCNC(=N)N)C(=O)N[C@@H](CCCNC(=N)N)C(=O)N[C@@H](CCCNC(=N)N)C(=O)N[C@@H](Cc1c[nH]cn1)C(=O)N[C@@H](Cc1ccccc1)C(=O)N[C@@H](Cc1c[nH]cn1)C(=O)N[C@@H](Cc1c[nH]cn1)C(=O)N[C@@H](C)C(=O)N[C@@H](CC(C)C)C(=O)N1CCC[C@H]1C(=O)N1CCC[C@H]1C(=O)N[C@@H](C)C(=O)N[C@@H](CCCNC(=N)N)C(=O)O — EC50 (C3AR1; GoA protein dissociation, agonist, NanoBiT): 1320 nM
N=C(N)Nc1ccc(CNC(=O)c2cc(-c3ccccc3)n(-c3ccccc3)n2)cc1 — EC50 (Genome polyprotein NS2B-NS3 protease; reporter gene; HeLa): > 50000 nM
C[C@@]1(c2nc(-c3ccc(F)c4cn[nH]c34)no2)CCCN(C(=O)c2ccc(F)nc2)C1 — EC50 (CNR2; agonist, GloSensor cAMP; CHO expressing CNR2): 7.49 nM and 8.7 nM and 7.88 nM and 8.16 nM
CCOC(=O)c1cnc(NCc2cccc(NC(=O)c3cc(-c4ccccc4)n(-c4ccccc4)n3)c2)nc1 — EC50 (Genome polyprotein NS2B-NS3 protease; reporter gene; HeLa): 23000 nM
CCc1cc(O)cc2c(/C=N/NC(=N)NCCc3ccc(Cl)cc3)c[nH]c12 — EC50 (Relaxin-3 receptor 2 (RXFP4, Homo sapiens, UniProt Q8TDU9, L118S/V122S); agonist): 6.92 nM
CC(C)(C(=O)N1CCC(Nc2nc3c(c(=O)[nH]2)CCCC3)CC1)c1ccc(Cl)cc1 — EC50 (ADGRG3 (Homo sapiens, UniProt Q86Y34); β-arrestin recruitment, agonist): 6450 nM
CCOC(=O)C(CC)(CCCSCCOCCOCCNC(=O)OC(C)(C)C)NC(=O)c1ccc(C2CC2)c(Cc2ccc(F)cc2)n1 (racemic) — EC50 (CNR2; cAMP, agonist): 36 nM
O=C(Cc1ccc([N+](=O)[O-])cc1)N[C@H]1CCOC1=O — EC50 (Regulatory protein SdiA (sdiA, Escherichia coli, UniProt P07026)): 3.06 nM
O=C(Nc1cccc(CN2CCc3nc[nH]c3C2)c1)c1cc(-c2ccccc2)n(-c2ccccc2)n1 — EC50 (Genome polyprotein NS2B-NS3 protease; reporter gene; HeLa): 5800 nM
CC[C@H](C)[C@H](NC(=O)[C@H](CCCNC(=N)N)NC(=O)[C@H](CCCNC(=N)N)NC(=O)[C@H](CC(C)C)NC(=O)[C@H](Cc1ccccc1)NC(=O)CNC(=O)CN)C(=O)N[C@@H](CCCNC(=N)N)C(=O)N1CCC[C@H]1C(=O)N[C@@H](CCCCN)C(=O)N[C@@H](CC(C)C)C(=O)N[C@@H](CCCCN)C(N)=O — EC50 (Probable G-protein coupled receptor 139 (GPR139, Homo sapiens, UniProt Q6DWJ6); calcium response, agonist, BRET; HEK293T/17, transfected): 5610 ± 620 nM
Cn1c(=O)n(C2CCC(=O)NC2=O)c2ccc(C3CCN(CC(=O)Nc4cccc(CS(=O)(=O)N5CC[C@H](Nc6cccc(-c7sc(C(=O)O)c(OCC(=O)O)c7Cl)c6)CC5(C)C)c4)CC3)cc21 (some centres unmarked) — EC50 (Receptor-type tyrosine-protein phosphatase beta (Homo sapiens, UniProt P23467); phosphatase activity; added: DiFMUP substrate): > 10000 nM
Nc1ncnc2c1ncn2[C@@H]1O[C@H](COP(=O)(O)OP(=O)(O)OC[C@H]2OC(O)[C@H](O)[C@@H]2O)[C@@H](O)[C@H]1OP(=O)(O)O (some centres unmarked) — EC50 (trpm2 (Danio rerio, UniProt A0A0R4IMY7); activator): 30 ± 3 nM
O=C(O)CC(NC(=O)c1ccc(-c2ccc(F)cc2)o1)C(=O)O (centres unmarked) — EC50 (SUCNR1; inositol phosphate, agonist): 2280 nM
CC[C@H](C)[C@H](NC(=O)[C@H](Cc1ccc(O)cc1)NC(=O)[C@H](CCCNC(=N)N)NC(=O)[C@H](CCCNC(=N)N)NC(=O)[C@H](CC(C)C)NC(=O)[C@H](CC(=O)O)NC(=O)[C@H](C)NC(=O)[C@H](C)NC(=O)[C@H](Cc1ccc(O)cc1)NC(=O)[C@H](CCC(N)=O)NC(=O)[C@H](C)NC(=O)[C@H](CCSC)NC(=O)[C@H](CCC(N)=O)NC(=O)[C@H](CCC(=O)O)NC(=O)[C@@H]1CCCN1C(=O)[C@@H](NC(=O)[C@H](C)NC(=O)[C@H](CC(N)=O)NC(=O)[C@H](CC(=O)O)NC(=O)CNC(=O)[C@@H]1CCCN1C(=O)[C@H](Cc1ccc(O)cc1)NC(=O)[C@@H](NC(=O)[C@@H]1CCCN1C(=O)[C@H](CCCCN)NC(=O)[C@H](CC(C)C)NC(=O)[C@@H]1CCCN1C(=O)[C@H](C)N)C(C)C)[C@@H](C)O)C(=O)N[C@@H](CC(N)=O)C(=O)N[C@@H](CCSC)C(=O)N[C@@H](CC(C)C)C(=O)N[C@H](C(=O)N[C@@H](CCCNC(=N)N)C(=O)N1CCC[C@H]1C(=O)N[C@@H](CCCNC(=N)N)C(=O)N[C@@H](Cc1ccc(O)cc1)C(N)=O)[C@@H](C)O — EC50 (Neuropeptide Y receptor type 1 (NPY1R, Homo sapiens, UniProt P25929); agonist): 12.3 nM
N#Cc1cc(NC(=O)c2cc(-c3ccccc3)n(-c3ccccc3)n2)ccc1N1CCC2(CC1)CNC2 — EC50 (Genome polyprotein NS2B-NS3 protease; reporter gene; HeLa): > 6300 nM
O=C1C[C@H](c2nc(-c3ccc(F)c4cn[nH]c34)no2)CCCN1c1ccc(F)cc1 (racemic) — EC50 (CNR2; cAMP, agonist, luciferase): 26.5 nM
O=C(Nc1ccc(N2CCNCC2)cc1)c1cc(-c2ccccc2)n(-c2ccccc2)n1 — EC50 (Genome polyprotein NS2B-NS3 protease; reporter gene; HeLa): > 24000 nM
CC(C)C[C@H](NC(=O)[C@@H](Cc1c[nH]c2ccccc12)NC(=O)[C@H](Cc1ccc(O)cc1)NC(=O)[C@H](CO)NC(=O)[C@H](Cc1c[nH]c2ccccc12)NC(=O)[C@H](Cc1c[nH]cn1)NC(=O)[C@@H]1CCC(=O)N1)C(=O)N[C@@H](CCCNC(=N)N)C(=O)N1CCC[C@H]1C(=O)NCC(N)=O — EC50 (Gonadotropin-releasing hormone receptor (GNRHR, Homo sapiens, UniProt P30968); inositol phosphate, agonist, TR-FRET): 0.0832 nM
CCOC(=O)C(CC)(CCCSCCCCCCNC(=O)OC(C)(C)C)NC(=O)c1ccc(C2CC2)c(Cc2ccc(F)cc2)n1 (centres unmarked) — EC50 (CNR2; cAMP, agonist): 7.7 nM
CC1=NC(C)C(C)S1 (centres unmarked) — EC50 (uncharacterized protein (Canis lupus familiaris, UniProt A0A8I3P1R6); cAMP level, agonist, cAMP luminescence; HEK293 cells): 259000 ± 10800 nM
Fc1ccc(CN2CCC[C@@H](c3nc(-c4ccc(F)c5cn[nH]c45)no3)C2)cn1 — EC50 (CNR2; agonist, GloSensor cAMP; CHO expressing CNR2): 101 nM and 91.5 nM
O=C(Nc1ccc(N2CCOCC2)cc1)c1cc(-c2ccccc2)n(-c2ccccc2)n1 — EC50 (Genome polyprotein NS2B-NS3 protease; reporter gene; HeLa): 14000 nM
COc1ccc(C(=O)c2c(C(=O)NCCCN(C)C)oc3ccc(Cl)cc3c2=O)cc1OC — EC50 (Growth hormone secretagogue receptor type 1 (GHSR, Homo sapiens, UniProt Q92847); beta-arrestin-2 recruitment, BRET; HEK293T; 60 min): 97.7 nM
CCOC(=O)[C@@](CC)(CCCSCCOCCOCCN)NC(=O)c1ccc(C2CC2)c(Cc2ccc(F)cc2)n1 — EC50 (CNR2; cAMP, agonist): 11 nM
CCCCCCCC/C=C\CCCCCCCC(=O)NCCO — EC50 (Transient receptor potential cation channel subfamily V member 1 (Trpv1, Mus musculus, UniProt Q704Y3, Y555F); ion current, agonist, whole-cell patch clamp; 24 °C, Y555F, +80 mV): 740 ± 370 nM
Cc1c(C(=O)N[C@H](C(=O)Nc2cccc(C(N)=O)c2)c2ccc(OCc3ccccc3)cc2)cnn1-c1ccccc1 — EC50 (Genome polyprotein NS2B-NS3 protease; reporter gene; HeLa): 9500 nM

Repeated from above:
CCOC(=O)C(CC)(CCCSCCCCCCNc1ccc([N+](=O)[O-])c2nonc12)NC(=O)c1ccc(C2CC2)c(Cc2ccc(F)cc2)n1 (centres unmarked) — EC50 (CNR2; cAMP, agonist): 9.9 nM
O=C(Cc1ccc(OCc2ccccc2)cc1)NC1(C(=O)O)CCN(C(=O)c2ccc(-c3cccc(Cl)c3)cc2)CC1 — EC50 (Adenosine receptor A3 (ADORA3, Homo sapiens, UniProt P0DMS8); cAMP, agonist, luciferase): > 10000 nM
